{"data": "Published values pooled from the literature", "note": "Protocols differ between the studies behind these lines. Several values in a cell are separate wells, animals, samples, runs or records. ± marks the error that the study gave."}
{"SMILES": "Cc1[nH]c(/C=C2\\C(=O)Nc3ccc(F)cc32)c(C)c1C(=O)N[C@H]1CCN(C(=O)N(C)C)C1", "test system": "human patients, plasma", "setting": "oral, 150 mg single dose, added: everolimus 5 mg", "AUC(0-t)": "4420 ± 2760 ng·h/mL"}
{"SMILES": "COc1ccc([C@@H](O)c2cc(-c3ncnc4cc(N5CCOCC5)ccc34)c(F)cc2Cl)nn1", "test system": "healthy human volunteers, plasma", "setting": "oral, 100 mg single dose, oral suspension, fasted, geometric mean", "AUC(0-t)": "1260 ng·h/mL"}
{"SMILES": "CO[C@H]1CC[C@H](N2C(=O)CNc3ncc(-c4ccc(C(C)(C)O)nc4)nc32)CC1", "test system": "human, plasma", "setting": "oral, 15 mg, day -1, geometric mean", "AUC(0-t)": "347 ng·h/mL"}
{"SMILES": "CC(=O)O[C@H]1C(=O)[C@@]2(C)[C@H]([C@H](OC(=O)c3ccccc3)[C@]3(O)C[C@H](OC(=O)[C@H](O)[C@@H](NC(=O)c4ccccc4)c4ccccc4)C(C)=C1C3(C)C)[C@]1(OC(C)=O)CO[C@@H]1C[C@@H]2O", "assay": "noncompartmental analysis", "test system": "human cancer patients, plasma", "setting": "intravenous infusion, 80 mg/m^2, cycle 1 day 1, added: daily oral co-medication", "AUC(0-t)": "4140 ng·h/mL"}
{"SMILES": "CN[C@@H](C)C(=O)N[C@H]1CN(S(=O)(=O)c2cccc(S(=O)(=O)N3CC[C@H]4CC[C@@H](C(=O)NC(c5ccccc5)c5ccccc5)N4C(=O)[C@@H](NC(=O)[C@H](C)NC)C3)c2)CC[C@H]2CC[C@@H](C(=O)NC(c3ccccc3)c3ccccc3)N2C1=O", "assay": "LC-MS/MS, noncompartmental", "test system": "human, plasma", "setting": "45 mg, cycle 1 day 1", "AUC(0-t)": "1320 ± 893 ng·h/mL"}
{"SMILES": "CC[C@H](C)[C@@H]([C@@H](CC(=O)N1CCC[C@H]1[C@H](OC)[C@@H](C)C(=O)N[C@@H](Cc1ccccc1)C(=O)NCCCO)OC)N(C)C(=O)[C@@H](NC(=O)[C@H](C(C)C)N(C)C)C(C)C", "test system": "human patients, plasma", "setting": "intravenous, 20 mg/m², cycle 1 geometric mean", "AUC(0-t)": "849 ng·h/mL"}
{"SMILES": "Cc1cc(-c2nnc(N)nc2-c2ccc(F)cc2)cc(Cl)n1", "test system": "human patients, plasma", "setting": "oral, 75 mg nanosuspension once daily, multiple doses, arithmetic mean", "AUC(0-t)": "1990 ng·h/mL"}
{"SMILES": "CNC(=O)n1ccc2cc(Oc3ccnc(NC(=O)c4ccc(C5CCN(CCO)CC5)cc4)c3)c(OCCOC)cc21", "test system": "healthy human, plasma", "setting": "oral, 35 mg, high-fat meal", "AUC(0-t)": "98.4 ng·h/mL"}
{"SMILES": "NC[C@@]1(CC(=O)O)[C@@H]2CC[C@H]3C[C@@H]2[C@@H]1C3", "test system": "human, normal renal function, plasma", "setting": "oral, 20 mg single dose, geometric mean", "AUC(0-t)": "1730 ng·h/mL"}
{"SMILES": "Cc1cc(C)c(CNC(=O)c2cc(Cl)c3c(c2C)O[C@@](C)([C@H]2CC[C@H](N(C)C)CC2)O3)c(=O)[nH]1", "assay": "mean", "test system": "healthy male humans, plasma", "setting": "oral, 25 mg, day 12, added: fluconazole", "AUC(0-t)": "1070 ng·h/mL"}
{"SMILES": "CCO", "test system": "human, breath", "setting": "0.5 g/kg, added: placebo", "AUC(0-t)": "146 ± 22.2 h·mg/100 mL"}
{"SMILES": "CN(CC#N)C(=O)C[C@H](Nc1nc2ccccc2[nH]1)c1cccc(C(F)(F)F)c1", "test system": "human", "setting": "intravenous infusion, 3 mg/kg, 1 mg/mL formulation", "AUC(0-t)": "23800 ± 5220 ng·h/mL"}
{"SMILES": "NC1(C(=O)N[C@@H](CCO)c2ccc(Cl)cc2)CCN(c2nc[nH]c3nccc2-3)CC1", "test system": "human, plasma", "setting": "dose not given", "AUC(0-t)": "2660 ng·h/mL and 1770 ng·h/mL and 2100 ng·h/mL"}
{"SMILES": "C[C@H]1CN(C(=O)CC#N)[C@]12CCN(c1ncnc3[nH]ccc13)C2", "test system": "healthy human, plasma", "setting": "oral, 6 mg single, geometric mean", "AUC(0-t)": "193 ng·h/mL"}
{"SMILES": "CC(C)c1nc(N(C)S(C)(=O)=O)nc(-c2ccc(F)cc2)c1/C=C/[C@@H](O)C[C@@H](O)CC(=O)O", "test system": "human, plasma", "setting": "oral, 20 mg, day 2, geometric mean, alone", "AUC(0-t)": "46.2 ng·h/mL"}
{"SMILES": "N#Cc1cccc(-c2ccc3ncc(-c4cc(F)cc(F)c4)c(N4CCC(N)CC4)c3c2)c1O", "test system": "human, plasma", "setting": "oral, 20 mg single dose, geometric mean", "AUC(0-t)": "2650 ng·h/mL"}
{"SMILES": "CC(C)c1nc(N(C)S(C)(=O)=O)nc(-c2ccc(F)cc2)c1/C=C/[C@@H](O)C[C@@H](O)CC(=O)O", "test system": "healthy human subjects, plasma", "setting": "oral, 10 mg, geometric mean, added: none", "AUC(0-t)": "33.4 ng·h/mL"}
{"SMILES": "CO[C@H]1C[C@@H]2CC[C@@H](C)[C@@](O)(O2)C(=O)C(=O)N2CCCC[C@H]2C(=O)O[C@H]([C@H](C)C[C@@H]2CC[C@@H](OC(=O)NCCOCCOCCOCCOCCOCCOCCOCCOCCC(=O)N3CCc4cc(Cn5nc(-c6ccc7oc(N)nc7c6)c6c(N)ncnc65)ccc4C3)[C@H](OC)C2)C[C@@H](O)[C@H](C)/C=C(\\C)[C@@H](O)[C@@H](OC)C(=O)[C@H](C)C[C@H](C)/C=C/C=C/C=C/1C", "test system": "human, plasma", "setting": "intravenous, 16 mg, cycle 1 day 1, arithmetic mean", "AUC(0-t)": "1080 ng·h/mL"}
{"SMILES": "CCN(CC)Cc1cc(Nc2ccnc3cc(Cl)ccc23)ccc1O", "test system": "human, both sexes, plasma", "setting": "oral, dose not given, non-fixed combination", "AUC(0-t)": "151 ng·h/mL"}
{"SMILES": "N#Cc1ccc([C@H]2CCc3cncn32)c(F)c1", "test system": "human, both sexes, plasma", "setting": "oral, 50 mg", "AUC(0-t)": "3330 ng·h/mL"}
{"SMILES": "C=CCn1c(=O)c2cnc(Nc3ccc(N4CCN(C)CC4)cc3)nc2n1-c1cccc(C(C)(C)O)n1", "test system": "human, plasma", "setting": "oral, 125 mg twice daily, cycle 1 day 17, geometric mean, added: durvalumab 1500 mg intravenous", "AUC(0-t)": "4.53 µM·h"}
{"SMILES": "CO[C@@H]1[C@H](OC(=O)N2CC(CCN3CCOCC3)C2)CC[C@]2(CO2)[C@H]1[C@@]1(C)O[C@@H]1CC=C(C)C", "test system": "humans, plasma", "setting": "subcutaneous, 0.2 mg twice weekly, fifth dose", "AUC(0-t)": "0.26 ± 0.14 ng·h/mL"}
{"SMILES": "CCN1CCN(Cc2ccc(Nc3ncc(F)c(-c4cc(F)c5nc6n(c5c4)[C@H](C)CCC6)n3)nc2)CC1", "test system": "human, plasma", "setting": "300 mg single dose, mean", "AUC(0-t)": "9560 ng·h/mL"}
{"SMILES": "COC(=O)c1ccc2c(c1)NC(=O)/C2=C(\\Nc1ccc(N(C)C(=O)CN2CCN(C)CC2)cc1)c1ccccc1", "test system": "healthy human", "setting": "oral, 150 mg single, alone", "scale": "arithmetic mean", "AUC(0-t)": "150 ng·h/mL"}
{"SMILES": "CN[C@@H](C)C(=O)N[C@H]1CN(S(=O)(=O)c2cccc(S(=O)(=O)N3CC[C@H]4CC[C@@H](C(=O)NC(c5ccccc5)c5ccccc5)N4C(=O)[C@@H](NC(=O)[C@H](C)NC)C3)c2)CC[C@H]2CC[C@@H](C(=O)NC(c3ccccc3)c3ccccc3)N2C1=O", "assay": "LC-MS/MS", "test system": "human, advanced solid tumours, plasma", "setting": "intravenous, 0.6 mg weekly, day 15", "AUC(0-t)": "15.7 ± 4.6 ng·h/mL"}
{"SMILES": "CCNCc1cc(Nc2ccnc3cc(Cl)ccc23)ccc1O", "test system": "human, both sexes, plasma", "setting": "oral, dose not given, fixed-dose combination", "AUC(0-t)": "27000 ng·h/mL"}
{"SMILES": "COc1cc(-c2cnc3cc(OCCN4CCOCC4)ccn23)cc2c1C(=O)N(CC(F)(F)F)CC2", "assay": "LC-MS", "test system": "human, plasma", "setting": "oral, 350 mg, -2 h on day 9, added: sulfasalazine 1000 mg", "AUC(0-t)": "4370 ng·h/mL"}
{"SMILES": "C=CC(=O)N(C)CCOc1c(N)ncnc1-c1cc(F)cc(NC(=O)c2ccc(C3CC3)cc2F)c1C", "test system": "human, whole blood", "setting": "oral, 5 mg, single ascending dose", "AUC(0-t)": "2.77 ng·h/mL"}
{"SMILES": "CNC(=O)c1ccc(-c2cnc3ncc(Cc4ccc5ncccc5c4)n3n2)cc1F", "test system": "human severe hepatic impairment NCI", "setting": "oral, 200 mg single dose, geometric mean", "AUC(0-t)": "5300 ng·h/mL"}
{"SMILES": "Cn1cc(-c2cn3nccc3c(-c3cnn([C@]4(CC#N)C[C@@H](C#N)C4)c3)n2)cn1", "test system": "healthy humans fasted, plasma", "setting": "10 mg single dose, geometric mean", "AUC(0-t)": "355 ng·h/mL"}
{"SMILES": "O=C(O)CCC(=O)O.[2H]C([2H])([2H])Oc1cc(C)c2[nH]ccc2c1CN1CC[C@@H](C2CC2)C[C@H]1c1ccc(C(=O)O)cc1", "test system": "healthy humans, fed", "setting": "oral, 200 mg, single dose, high-fat meal", "AUC(0-t)": "121000 ng·h/mL"}
{"SMILES": "CC(=O)N1CCC(Nc2cc(C(=O)NC[C@H](O)CN3CCc4ccccc4C3)ncn2)CC1", "test system": "human", "setting": "oral, 300 mg, geometric mean", "AUC(0-t)": "5190 ng·h/mL"}
{"SMILES": "Cl.[2H]C([2H])([2H])CC(=O)c1cnc(NC(=O)C2CC2)cc1Nc1cccc(-c2ncn(C([2H])([2H])[2H])n2)c1OC", "test system": "human, fasted, plasma", "setting": "oral, 25 mg, single dose, liquid formulation", "AUC(0-t)": "1830 ng·h/mL"}
{"SMILES": "CC(C)n1c(Nc2cccnc2)nc2cnc(Nc3ccc(N4CCN(C)CC4)cc3)nc21", "test system": "human, male, plasma", "setting": "oral, 100 mg, day 11, added: itraconazole 200 mg", "AUC(0-t)": "1100 ng·h/mL"}
{"SMILES": "CNC(=O)c1c(C)oc2cc(Oc3ncnc4cc(OC)c(OC)cc34)ccc12", "test system": "healthy human subjects, plasma", "setting": "oral, 5 mg, arithmetic mean, added: dabigatran etexilate 150 mg", "AUC(0-t)": "5200 ng·h/mL"}
{"SMILES": "C#C[C@]1(CO)O[C@@H](n2cnc3c(N)nc(F)nc32)C[C@@H]1O", "test system": "human, plasma", "setting": "oral, 30 mg, single dose, geometric mean", "AUC(0-t)": "3.4 µM·h"}
{"SMILES": "CC(C)=CCC/C(C)=C/CC/C(C)=C/CC[C@@](C)(O)CCC1=C(C)C(=O)C(C)=C(C)C1=O", "test system": "healthy human, plasma", "setting": "oral, 400 mg, added: itraconazole 200 mg", "AUC(0-t)": "11300 ng·h/mL"}
{"note": "A few entries again:"}
{"SMILES": "C=CC(=O)N(C)CCOc1c(N)ncnc1-c1cc(F)cc(NC(=O)c2ccc(C3CC3)cc2F)c1C", "test system": "human, whole blood", "setting": "oral, 5 mg, single ascending dose", "AUC(0-t)": "2.77 ng·h/mL"}
{"SMILES": "CNC(=O)c1ccc(-c2cnc3ncc(Cc4ccc5ncccc5c4)n3n2)cc1F", "test system": "human severe hepatic impairment NCI", "setting": "oral, 200 mg single dose, geometric mean", "AUC(0-t)": "5300 ng·h/mL"}
{"SMILES": "Cn1cc(-c2cn3nccc3c(-c3cnn([C@]4(CC#N)C[C@@H](C#N)C4)c3)n2)cn1", "test system": "healthy humans fasted, plasma", "setting": "10 mg single dose, geometric mean", "AUC(0-t)": "355 ng·h/mL"}
{"SMILES": "O=C(O)CCC(=O)O.[2H]C([2H])([2H])Oc1cc(C)c2[nH]ccc2c1CN1CC[C@@H](C2CC2)C[C@H]1c1ccc(C(=O)O)cc1", "test system": "healthy humans, fed", "setting": "oral, 200 mg, single dose, high-fat meal", "AUC(0-t)": "121000 ng·h/mL"}
